Measured values of several laboratories.
Every numbered part comes from another study and shows a few of its results, in no order. Changes are numbered by the printed parent chain.

Set 1
Target: OGT, full length, His-tagged (human)
Method: phage display, sequencing
Medium: in vitro
Concentration: 1 µg OGT
Notes: single substitutions, 15-mer displayed peptide, unchanged parent 19.6
Relative to: input library
Direction: higher = stronger binding
Starting sequence: peptide; TAPFYPPAYQIQVFK; partner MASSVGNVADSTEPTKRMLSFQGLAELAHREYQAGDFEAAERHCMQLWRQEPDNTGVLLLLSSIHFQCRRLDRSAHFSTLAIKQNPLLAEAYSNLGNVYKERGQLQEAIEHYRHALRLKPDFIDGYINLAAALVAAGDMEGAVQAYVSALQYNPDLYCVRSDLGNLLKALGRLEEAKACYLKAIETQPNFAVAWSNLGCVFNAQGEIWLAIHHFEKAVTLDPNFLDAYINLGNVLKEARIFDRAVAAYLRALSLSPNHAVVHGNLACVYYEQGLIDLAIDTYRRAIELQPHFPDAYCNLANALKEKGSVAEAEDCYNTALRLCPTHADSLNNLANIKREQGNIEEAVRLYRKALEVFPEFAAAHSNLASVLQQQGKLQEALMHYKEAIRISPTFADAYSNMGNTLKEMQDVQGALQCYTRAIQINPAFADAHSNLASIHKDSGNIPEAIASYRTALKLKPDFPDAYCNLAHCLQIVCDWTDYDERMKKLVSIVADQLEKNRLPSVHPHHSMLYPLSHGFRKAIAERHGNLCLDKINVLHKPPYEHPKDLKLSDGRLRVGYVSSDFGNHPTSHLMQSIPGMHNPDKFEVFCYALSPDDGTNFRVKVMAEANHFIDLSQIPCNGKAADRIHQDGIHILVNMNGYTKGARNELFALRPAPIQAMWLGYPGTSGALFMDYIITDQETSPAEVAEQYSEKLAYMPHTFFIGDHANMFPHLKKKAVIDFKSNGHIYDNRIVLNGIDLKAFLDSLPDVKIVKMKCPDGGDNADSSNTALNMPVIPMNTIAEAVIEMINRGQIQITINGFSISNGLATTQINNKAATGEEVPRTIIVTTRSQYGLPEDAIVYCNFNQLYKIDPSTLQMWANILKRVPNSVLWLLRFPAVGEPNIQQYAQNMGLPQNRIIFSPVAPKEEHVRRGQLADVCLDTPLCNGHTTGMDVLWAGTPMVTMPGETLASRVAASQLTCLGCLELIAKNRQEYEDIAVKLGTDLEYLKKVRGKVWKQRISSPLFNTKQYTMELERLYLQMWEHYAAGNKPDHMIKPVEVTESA
| Substitution | fold enrichment |
| --- | --- |
| TAPFYQPAYQIQVFK [P6Q] | 0.625 fold |
| TAPFYPPAYQIQVFR [K15R] | 11.8 fold |
| TAPFEPPAYQIQVFK [Y5E] | 0.384 fold |
| TALFYPPAYQIQVFK [P3L] | 23.7 fold |
| TAPFYEPAYQIQVFK [P6E] | 0.812 fold |
| TAPFYPPKYQIQVFK [A8K] | 18.3 fold |
| TAPFYPPAYQIQQFK [V13Q] | 0.876 fold |
| TAPFYPPNYQIQVFK [A8N] | 1.13 fold |
| TAPSYPPAYQIQVFK [F4S] | 10.6 fold |
| TAPFYPPAYQIQTFK [V13T] | 13.8 fold |
| TAPFFPPAYQIQVFK [Y5F] | 32.5 fold |
| TAPFYPPAYWIQVFK [Q10W] | 2.66 fold |
| TAPFYPPHYQIQVFK [A8H] | 8.38 fold |
| TAPFYPPAYQIQVGK [F14G] | 18.5 fold |
| TAPFYPPAYQIGVFK [Q12G] | 1.99 fold |
| TATFYPPAYQIQVFK [P3T] | 21.8 fold |

Set 2
Target: Prothrombin, mature alpha-thrombin (F2, Homo sapiens, UniProt P00734)
Method: aptamer microarray, sandwich
Form: DNA with 2'F-ANA
Medium: in vitro
Concentration: 200 nM
Notes: whole 15-mer aptamer, many near background
Added: Cy3 exosite-II aptamer, 400 nM
Direction: higher = stronger binding
Oligonucleotide: GGTTGGTGTGGTTGG
| Modification | mean fluorescence intensity [a.u.] |
| --- | --- |
| 2'F-ANA at 4 7 9 10 11 12 | 114 |
| 2'F-ANA at 3 4 5 7 11 14 | 63.1 |
| 2'F-ANA at 1 2 3 6 8 9 10 11 12 14 | 51.8 |
| 2'F-ANA at 1 2 6 8 9 10 13 | 49.5 |
| 2'F-ANA at 1 6 9 10 13 15 | 55.4 |
| 2'F-ANA at 2 3 5 6 9 10 13 | 49.3 |
| 2'F-ANA at 1 2 3 8 9 10 11 12 13 | 106 |
| 2'F-ANA at 2 3 4 5 10 12 13 14 15 | 102 |
| 2'F-ANA at 4 5 6 7 8 11 12 | 142 |
| 2'F-ANA at 2 3 5 6 7 8 9 12 13 14 15 | 57.6 |
| 2'F-ANA at 2 3 9 10 11 | 363 |
| 2'F-ANA at 1 2 4 5 10 12 13 | 46.1 |
| 2'F-ANA at 1 4 6 7 8 10 12 | 62.3 |
| 2'F-ANA at 5 6 7 11 13 14 15 | 46.3 |
| 2'F-ANA at 1 4 5 8 9 10 11 12 15 | 49.1 |
| 2'F-ANA at 1 2 4 5 7 11 12 14 | 47.1 |
| 2'F-ANA at 2 5 7 8 10 11 13 14 15 | 48 |
| 2'F-ANA at 1 2 3 4 5 6 7 9 10 | 47.1 |
| 2'F-ANA at 1 2 6 7 8 10 15 | 55.7 |
| 2'F-ANA at 2 3 4 5 7 9 11 13 14 | 47.6 |
| 2'F-ANA at 1 2 3 4 7 8 9 11 12 15 | 317 |
| 2'F-ANA at 1 3 5 7 10 13 14 | 73.4 |
| 2'F-ANA at 2 4 5 6 8 9 12 14 | 51.1 |
| 2'F-ANA at 4 5 6 8 10 14 15 | 45.3 |

Set 3
Target: CCND1, cyclin fold, Cln2 fusion (human)
Method: yeast growth competition, sequencing
Medium: yeast
Notes: weak parent motif
Relative to: not given
Direction: higher = stronger binding
Starting sequence: SAMHD1 docking peptide (human); ASKSRVQLFKDDP; partner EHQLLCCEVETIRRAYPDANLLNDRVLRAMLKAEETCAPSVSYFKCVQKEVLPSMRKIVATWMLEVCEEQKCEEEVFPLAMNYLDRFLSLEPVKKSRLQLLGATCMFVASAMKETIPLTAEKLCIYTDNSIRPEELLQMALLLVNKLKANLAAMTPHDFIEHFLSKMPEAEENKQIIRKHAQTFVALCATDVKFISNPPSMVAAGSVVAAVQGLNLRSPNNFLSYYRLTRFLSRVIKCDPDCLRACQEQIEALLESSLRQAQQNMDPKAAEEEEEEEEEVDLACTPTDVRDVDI
| Substitution | normalised enrichment score |
| --- | --- |
| ASKSRVQLFKDLP [D12L] | 0.114 |
| ASKSRVQLFCDDP [K10C] | 0.697 |
| ASKSRVQLDKDDP [F9D] | 0.444 |
| ASKSRVQLFKDQP [D12Q] | 0.195 |
| ASKSRVQLFKYDP [D11Y] | 0.141 |
| ASKSRNQLFKDDP [V6N] | -0.00957 |
| ASKSKVQLFKDDP [R5K] | 0.917 |
| ASKSRVQLFKIDP [D11I] | 0.0715 |
| ASKIRVQLFKDDP [S4I] | 0.923 |
| ASKFRVQLFKDDP [S4F] | 0.402 |
| ASKSRVQLCKDDP [F9C] | 0.0554 |
| ASKSRVQLFRDDP [K10R] | 0.278 |
| ARKSRVQLFKDDP [S2R] | -0.295 |
| AQKSRVQLFKDDP [S2Q] | 0.361 |

Set 4
Target: ABI1, truncated, D143A, DHFR fusion (Arabidopsis thaliana)
Method: DHFR PCA, deep sequencing
Medium: yeast
Notes: methotrexate growth selection, single substitutions
Added: (+)-ABA 58 µM
Relative to: wild-type fitted maximum
Direction: higher = stronger binding
Starting sequence: PYL1, truncated, DHFR fusion (Arabidopsis thaliana); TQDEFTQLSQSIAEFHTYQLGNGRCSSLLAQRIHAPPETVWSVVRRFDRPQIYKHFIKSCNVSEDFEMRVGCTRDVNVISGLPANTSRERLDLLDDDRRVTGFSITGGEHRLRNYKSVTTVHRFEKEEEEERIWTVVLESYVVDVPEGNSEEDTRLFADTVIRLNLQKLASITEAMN; partner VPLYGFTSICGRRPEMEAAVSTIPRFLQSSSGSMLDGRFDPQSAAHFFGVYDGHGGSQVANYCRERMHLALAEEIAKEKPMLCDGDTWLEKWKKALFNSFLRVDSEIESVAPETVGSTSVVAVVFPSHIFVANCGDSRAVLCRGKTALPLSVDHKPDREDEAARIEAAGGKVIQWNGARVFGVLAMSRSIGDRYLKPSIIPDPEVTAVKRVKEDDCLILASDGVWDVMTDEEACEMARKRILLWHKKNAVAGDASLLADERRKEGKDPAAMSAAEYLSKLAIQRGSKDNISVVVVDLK
| Substitution | relative binding score |
| --- | --- |
| Q2L | 90.5% |
| T120M | 4.38% |
| M176S | 82.4% |
| S63K | 85.6% |
| C72D | 84.2% |
| K54P | -6.79% |
| L138A | 21% |
| I172F | 67.5% |
| V100P | -15% |
| R24N | 80.5% |
| N77C | 91.7% |
| R111C | 43.2% |
| L20C | 94.8% |
| K54W | 15.5% |
| T119Q | 73.8% |
| I57T | 27.2% |
| N61R | 90.4% |
| T39E | 83.7% |

Mixed results
| Substance | target | test | system | setting | scale | quantity | value |
| --- | --- | --- | --- | --- | --- | --- | --- |
| PhoQ, residues 284 288 289 292 302 303 ALSMDL | PhoP, residues 12 14 15 18 19 TPWLV (Escherichia coli, UniProt P23836) | Sort-seq, refers to: YFP reporter | E. coli | PhoQ-PhoP variant library, added: 10 µM Mg2+ | relative to: high Mg2+ state, higher = stronger signaling | fold induction | 29.6 |

Some of these lines once more (set 4):
| Substitution | relative binding score |
| --- | --- |
| S63K | 85.6% |
| N77C | 91.7% |
| L138A | 21% |
| R24N | 80.5% |
